Published values gathered from unrelated publications.
Lines come from different studies, so protocols differ. ± gives the spread as reported.

SMILES | test | system | conditions | how to read | quantity | result
CCCC[C@H](NC(C)=O)C(=O)N[C@H]1CC(=O)NCCCC[C@@H](C(=O)N[C@@H](C(=O)N2CCC[C@@H]2C(N)=O)C(C)C)NC(=O)[C@H](Cc2c[nH]c3ccccc23)NC(=O)[C@H](CCCN=C(N)N)NC(=O)[C@@H](Cc2ccc3ccccc3c2)NC(=O)[C@@H]2CCCN2C1=O | – | healthy dogs, plasma | subcutaneous, 2.25 mg/kg per day, day 28, 2 h post-dose, median | – | plasma histamine | 18.1 ng/mL
NC[C@@H](C(=O)Nc1ccc(-c2cn[nH]c2)cc1)c1ccccc1 | metabolic stability | rabbit, liver microsomes | – | – | microsomal CLint | 16.9 µL/min/mg
N=C(N)NCCC[C@@H]1NC(=O)[C@H](Cc2c[nH]c3ccccc23)NC(=O)[C@@H](CC2CCCCC2)NC(=O)[C@@H]2CCCN2C(=O)[C@@H](NC(=O)CCc2ccccc2)CCCNC1=O | – | C57BL/6J mice, brain | subcutaneous, 1 mg/kg, two-compartment model | – | distribution rate constant k12 | 0.53 h⁻¹
CCNC(=O)OCc1c(COC(=O)NCC)c(-c2ccc(OC)cc2)n2c1Cc1ccccc1-2 | – | BALB/c nude mice, blood | dose not given, day 10 | – | mean cell volume | 52.7 ± 0.5 fL
CC[C@H](C)[C@H](NC(=O)[C@H](CC(C)C)NC(=O)[C@H](Cc1c[nH]c2ccccc12)NC(=O)[C@H](C)NC(=O)[C@@H](NC(=O)[C@H](Cc1ccccc1)NC(=O)[C@H](CC(=O)O)NC(=O)[C@H](CCCNC(=N)N)NC(=O)[C@H](C)NC(=O)[C@H](C)NC(=O)[C@H](CC(C)C)NC(=O)[C@H](C)NC(=O)[C@H](CC(=O)O)NC(=O)[C@H](CC(C)C)NC(=O)[C@@H](NC(=O)[C@@H](NC(=O)[C@H](C)NC(=O)[C@H](CC(C)C)NC(=O)[C@H](CCC(=O)O)NC(=O)[C@H](CO)NC(=O)[C@H](CO)NC(=O)[C@H](Cc1ccccc1)NC(=O)[C@@H](NC(=O)CNC(=O)[C@H](CCC(=O)O)NC(=O)CNC(=O)[C@@H](N)Cc1c[nH]cn1)[C@@H](C)O)[C@@H](C)O)[C@@H](C)CC)[C@@H](C)CC)C(=O)N[C@@H](C)C(=O)N[C@H](C(=O)N[C@@H](CCCCN)C(=O)N[C@H](C(=O)N[C@H](C(=O)N[C@@H](CC(=O)O)C(=O)N[C@@H](CCCCN)C(=O)N[C@@H](CCCCN)C(=O)O)[C@@H](C)O)[C@@H](C)CC)[C@@H](C)O | – | healthy human subjects, plasma | subcutaneous, 5 mg once weekly, day 36 after 6 doses, steady state, mean | – | terminal half-life | 17 h
CC/C=C\C/C=C\C/C=C\C/C=C\C/C=C\CCCCOC(CC)C(=O)O (stereo not drawn) | radioactivity, 14C-labelled | Wistar rat, male, whole blood | oral, 100 mg/kg, 1 day | – | tissue concentration | 2.6 µg equivalents/g tissue
CC(C)(O)c1ncc([S@](N)(=O)=NC(=O)Nc2c3c(cc4c2CCC4)CCC3)s1 | – | healthy human | oral, 10 mg once daily, day 14, capsule formulation, geometric mean | – | AUC(0-tau) | 11.2 µg·h/mL
COc1cc(-c2nc3ccccc3s2)cc(CN2CCN(CC(=O)O)CCN(CC(=O)O)CC2)c1O | UV-Vis pH titration | – | 25 °C, ionic strength 0.1 M NaCl | – | pKa2 | 6.44
CCCC[C@H](NC(=O)CNC(=O)CNC(=O)CN1CCN(CC(=O)O)CCN(CC(=O)O)CCN(CC(=O)O)CC1)C(=O)N[C@H]1CC(=O)NCCCC[C@@H](C(N)=O)NC(=O)[C@H](Cc2c[nH]c3ccccc23)NC(=O)[C@H](CCCNC(=N)N)NC(=O)[C@@H](Cc2ccccc2)NC(=O)[C@H](Cc2c[nH]cn2)NC1=O [copper-64 labelled] | – | female C57 mouse, B16/F1 melanoma | intravenous, 0.037 MBq, 4 h | baseline: tumour over heart | uptake ratio | 3.62
COc1ccc(/C=C/c2ccc(-c3ccc(C)cn3)nc2)cc1 | TCSPC | CHCl3 | – | – | radiative decay rate constant | 0.52 ns⁻¹
NCCCC(=O)OCC(=O)c1ccc(O)c(C(F)(F)F)c1.O=C(O)C(F)(F)F | photolysis, item: GABA appearance | aqueous HEPES buffer with LiClO4 | pH 7.3 | – | quantum yield | 0.11
Cc1[nH]c(/C=C2\C(=O)Nc3ccc(F)cc32)c(C)c1NC(=O)CCN1CCN(C)CC1 | – | dog plasma | 40 ng/mL, 24 h in injector after processing, 4 °C | – | accuracy deviation | -9.72%
COc1cc2c(cc1OC)CN(CCCCn1ccc3cc(OCC[18F])ccc31)C2 | – | male CD-1 mouse, heart | intravenous, 1 h | – | tracer uptake | 2.03 %ID/g
CC(=O)N[C@H](CC(=O)O)C(=O)N[C@H](Cc1c[nH]c2ccccc12)C(=O)N[C@H](Cc1ccccc1)C(=O)N[C@H](CCCCN)C(=O)N[C@H](C)C(=O)N[C@H](Cc1ccccc1)C(=O)N[C@H](Cc1ccc(O)cc1)C(=O)N[C@H](CC(=O)O)C(=O)N[C@H](CCCCN)C(=O)N[C@@H](C(=O)N[C@H](C)C(=O)N[C@H](CCC(=O)O)C(=O)N[C@H](CCCCN)C(=O)N[C@H](Cc1ccccc1)C(=O)N[C@H](CCCCN)C(=O)N[C@H](CCC(=O)O)C(=O)N[C@H](C)C(=O)N[C@H](Cc1ccccc1)C(N)=O)C(C)C | – | statin-treated high-risk CHD women, plasma | oral, 300 mg daily, day 13, 0 to 8 h, mean, undetectable set to 0 | – | AUC(0-t) | 0.0474 µg·h/mL
Cc1cc(N)nc(C[C@@H]2CNC[C@@H]2OCCNCC(F)(F)c2cccc(F)c2)c1 | in vitro metabolic stability | – | – | – | metabolic rate | 0.05 nmol/min/mg protein
CCCC[C@H](NC(=O)CNC(=O)CNC(=O)CN1CCN(CC(=O)O)CCN(CC(=O)O)CC1)C(=O)N[C@H]1CC(=O)NCCCC[C@@H](C(N)=O)NC(=O)[C@H](Cc2c[nH]c3ccccc23)NC(=O)[C@H](CCCNC(=N)N)NC(=O)[C@@H](Cc2ccccc2)NC(=O)[C@H](Cc2c[nH]cn2)NC1=O [gallium-67 labelled] | – | C57 mice, female, B16/F1 melanoma, tumour over blood | intravenous, 0.037 MBq, 24 h | – | tumour to tissue uptake ratio | 14.5
Cn1c(=O)oc2ccc(-c3ccc(CC(C#N)NC(=O)C4CNCCCO4)c(F)c3)cc21 (stereo not drawn) | – | human | oral, 40 mg once daily, TEAE, multiple ascending dose | – | abdominal pain incidence | 0%
N#CC1(c2ccc3c(N)ncnn23)OC(COP(=O)(O)O)C(O)C1O (stereo not drawn) | LC-MS/MS | male CD-1 mice, liver, kidney and lung | oral, 100 mg/kg of remdesivir | – | last detectable time | ≤ 16 h
NCCCC(=O)OCC(=O)c1ccc(O)cc1F.O=C(O)C(F)(F)F | photolysis at 300 nm | ammonium acetate buffered acetonitrile-water | pH 5.0, 0.01 mol/L buffer | – | quantum yield of GABA release | 0.23
CC(C)[C@H](NC(=O)[C@@H]1CCCN1C(=O)[C@H](CCCNC(=N)N)NC(=O)[C@H](CS)NC(=O)[C@H](Cc1c[nH]c2ccccc12)NC(=O)[C@H](CCCNC(=N)N)NC(=O)[C@@H](Cc1ccccc1)NC(=O)[C@H](Cc1c[nH]cn1)NC(=O)[C@H](CCC(=O)O)NC(=O)[C@H](CS)NC(=O)[C@H](CS)NC(=O)COCCOCCNC(=O)[C@@H]1CC(=O)N[C@@H](CCCNC(=N)N)C(=O)NCC(=O)N[C@@H](CC(=O)O)C(=O)N[C@H](Cc2ccc(O)cc2)C(=O)N1)C(N)=O [technetium-99m labelled] | – | nude mouse, M21 melanoma xenograft, tumour over kidneys | intravenous, 0.037 MBq, 2 h | baseline: tumour over kidneys | tumour-to-tissue ratio | 0.08 ± 0.01
COc1cc(CNC(=O)CCCC/C=C/C(C)C)ccc1N | eye-wiping | C57BL/6 mice, both sexes | ocular instillation, 1 min | – | moderate pain-producing concentration | 0.233 mg/mL

Excerpt of the above:
SMILES | test | system | conditions | how to read | quantity | result
CC(=O)N[C@H](CC(=O)O)C(=O)N[C@H](Cc1c[nH]c2ccccc12)C(=O)N[C@H](Cc1ccccc1)C(=O)N[C@H](CCCCN)C(=O)N[C@H](C)C(=O)N[C@H](Cc1ccccc1)C(=O)N[C@H](Cc1ccc(O)cc1)C(=O)N[C@H](CC(=O)O)C(=O)N[C@H](CCCCN)C(=O)N[C@@H](C(=O)N[C@H](C)C(=O)N[C@H](CCC(=O)O)C(=O)N[C@H](CCCCN)C(=O)N[C@H](Cc1ccccc1)C(=O)N[C@H](CCCCN)C(=O)N[C@H](CCC(=O)O)C(=O)N[C@H](C)C(=O)N[C@H](Cc1ccccc1)C(N)=O)C(C)C | – | statin-treated high-risk CHD women, plasma | oral, 300 mg daily, day 13, 0 to 8 h, mean, undetectable set to 0 | – | AUC(0-t) | 0.0474 µg·h/mL
